Measured values of several laboratories.
Numbered parts are unrelated; each lists some results of a single study. Changes are numbered by the printed parent chain.

Series 1
Target: PABPC1L2, full length, GST fusion (mouse, UniProt A0ABA7IW68)
Method: RNAcompete
Form: RNA
Sample: in vitro
Tested at: 20 nM
Notes: 7-mer, probes averaged, single round
Reference: mean of 7-mers
Reading: higher = stronger binding
Construct (chain): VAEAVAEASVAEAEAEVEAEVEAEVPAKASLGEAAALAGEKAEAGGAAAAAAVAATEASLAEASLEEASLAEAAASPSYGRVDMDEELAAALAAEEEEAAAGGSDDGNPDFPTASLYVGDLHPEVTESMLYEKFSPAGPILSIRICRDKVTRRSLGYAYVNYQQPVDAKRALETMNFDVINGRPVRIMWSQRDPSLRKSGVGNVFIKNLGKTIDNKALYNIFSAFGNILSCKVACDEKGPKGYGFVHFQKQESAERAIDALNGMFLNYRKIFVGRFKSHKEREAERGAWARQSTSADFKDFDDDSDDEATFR
| Strand | 7-mer Z-score |
| --- | --- |
| UCGACCA | -0.287 |
| AAGAGUA | 0.343 |
| GUUGAGA | -0.137 |
| GGUCACU | -0.0355 |
| AGUUACU | -0.199 |
| CUUUGGG | -0.277 |
| CGUUGUG | -0.295 |
| AGACUAC | -0.17 |
| CAUCCAU | -0.282 |
| CAACAGG | 0.16 |
| AUCCUUU | -0.219 |
| AACGCCG | -0.132 |
| GAUAGUA | -0.0971 |
| UCUCAAA | 0.276 |
| CUCUUAA | 0.0642 |
| UCGAGGC | -0.202 |
| CAUGGCG | 0.106 |
| GGCCAGG | 0.222 |

Series 2
Target: CCNB1, cyclin fold, Cln2 fusion (human)
Method: yeast growth competition, sequencing
Sample: yeast
Notes: weak parent motif
Reference: not given
Reading: higher = stronger binding
Starting sequence: CDC6 docking peptide (human); TLKGRRLVFDNQL
| Change | normalised enrichment score |
| --- | --- |
| L7V | 0.14 |
| Q12I | 0.675 |
| F9L | 0.425 |
| L7C | -0.337 |
| K3F | 0.161 |
| G4T | 0.491 |
| L2M | 0.356 |
| G4M | 1.5 |
| Q12P | 0.42 |
| V8F | 0.836 |
| R6V | 1.01 |
| N11C | 0.937 |
| T1D | -0.798 |
| L2H | 0.249 |
| L2T | -0.66 |
| G4K | -0.449 |
| R5T | 0.739 |
| L7I | 1.06 |
| T1L | 0.696 |
| L2I | 0.0281 |
| R6W | -0.738 |
| G4P | 0.389 |
| D10A | -0.432 |
| K3G | 0.189 |
| D10R | 1.13 |

Series 3
Target: Interferon regulatory factor 3, full length, phosphomimetic (IRF3, Homo sapiens, UniProt Q14653, residues 1-427, S386D/S396D/S398D/S402D/T404D/S405D)
Method: protein-binding microarray
Form: double-stranded DNA, one strand shown
Sample: in vitro
Tested at: 2540 nM top
Notes: 60-bp whole probe
Added: salmon DNA 0.4 mg/ml
Reference: random background probes
Reading: higher = stronger binding
Shared flanks, not repeated: GCCTAGCAC … GTCTTGATTCGCTTGACGCTGCTG
Construct (chain): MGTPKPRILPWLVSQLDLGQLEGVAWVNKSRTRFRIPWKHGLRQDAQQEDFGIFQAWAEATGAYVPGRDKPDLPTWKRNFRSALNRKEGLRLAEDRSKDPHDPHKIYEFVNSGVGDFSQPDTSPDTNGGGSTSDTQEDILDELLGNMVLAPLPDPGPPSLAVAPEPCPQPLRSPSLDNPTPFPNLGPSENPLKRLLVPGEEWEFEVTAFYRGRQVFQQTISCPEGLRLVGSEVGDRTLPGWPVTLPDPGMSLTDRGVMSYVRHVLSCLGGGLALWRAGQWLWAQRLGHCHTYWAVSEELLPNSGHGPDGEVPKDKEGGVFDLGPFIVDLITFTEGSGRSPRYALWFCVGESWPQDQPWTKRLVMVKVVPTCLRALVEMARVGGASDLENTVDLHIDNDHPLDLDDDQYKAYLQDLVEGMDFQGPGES
| Strand | fitted relative affinity [z-score] |
| --- | --- |
| TTAGACATCGGGACTGGATTAGTGCTA | -0.661 |
| TCAACTTTGAATTAGAAACTGTGCTAG | 0.147 |
| GACGATCTCAGTCTCGAGAAGTGCTAG | 0.639 |
| GACGATTTCAGTCTCGAGAGGTGCTAG | 2.43 |
| TTAGGACTGGACTATCAGTTAGTGCTA | -0.337 |
| GACGCACTGAGTATCGAGACGTGCTAG | -0.0292 |
| TTTGGTCTCGGACTGGGTTAGTGCTAG | -0.0661 |
| TTAGGTTTCGGTTCCCGTTAGTGCTAG | 10 |
| GACGATATCGGGGATCGAGACGTGCTA | -0.0621 |
| GACGGACTGGGGTATCGCGACGTGCTA | -0.877 |
| GACGATATCGAGTATCGAGACGTGCTA | 0.233 |
| TTAGGACTGCTTAGCCTTTAGTGCTAG | -0.598 |
| GACGGACTGGGTATCGGAACGTGCTAG | 0.746 |
| GACGGTTTCGACTTTCGGGCCGTGCTA | 3.59 |
| TCATTTTACTTTCTATGACTGTGCTAG | 3.92 |
| TCATCTCTGGGTCGGGCACTGTGCTAG | 0.352 |
| GACGGTTTCATTATCCTGACGTGCTAG | 4.37 |
| AAGGCTTTGCTTCCTGCAGAGTGCTAG | -0.647 |
| TTAGGTTTCGGTTCCGGTGAGTGCTAG | 10.7 |

Series 4
Target: RNA binding protein fox-1 homolog 2, RRM domain, GST-SBP tag (RBFOX2, Homo sapiens, UniProt O43251-10, residues 100-194)
Method: RNA Bind-n-Seq
Form: RNA
Sample: in vitro
Tested at: 365 nM
Notes: natural RNA segment, single round, ends assumed
Reference: no-protein control
Reading: higher = stronger binding
Shared flanks, not repeated: GGGAGUUCUACAGUCCGACGAUC … UGGAAUUCUCGGGUGCCAA
Residues (chain): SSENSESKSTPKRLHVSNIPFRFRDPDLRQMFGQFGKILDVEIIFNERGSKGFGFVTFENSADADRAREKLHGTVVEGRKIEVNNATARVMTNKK
| Strand | RBNS enrichment (R) |
| --- | --- |
| AAUUAUGAGUGGCAGAGCUUUCUGUGUAUAAUUUGUCUACAUAAUUUGUCUAAUAAAAAUGUUUUCUAAACUUGCUCUCAUACUAUUGAAGUCUUAACUAUAAAAGUAAA | 0.629 |
| UCACUCUUCACUUGAGUUGGCUGUGUUCGGGGGAGCAGAGAGAGCCAGACAGCCCCAAGCUUCUGAGUCUAGAUACAGAAGCCCAUGUCUUCUGCUGUUCUUCACUUCUG | 0.311 |
| CUUUCCUCCCAAGUCCACUUUACCCUUUCUCACGCAUCCUGGUGGUCCCUUGGGUACCUGGCCCUAGCCCUGCUUUCUUUCAUCCUGGUGAUCUUAAUUGUGGAGGUGCA | 2 |
| GGCCUGGCUAGGAGCCCUUCAGGCCUCUCUCUCCUCUGUCCACCCUUGGCCUGUCUCAUCCCUGUGGGUCCCAGCUCAGCUCUGGCCACCCCGGGCUCUCUGCUGUACAU | 0.29 |
| UCGCUUAAGGAAUCUGCCCCACAGCUUCCCCCAUAGAAGGAUUUCAUGAGCAGAUCAGGACACUUAGCAAAUGUAAAAAUAAAAUCUAACUCUCAUUUGACAAGCAGAGA | 0.332 |
| AUUAUUUAUACUUAUUAUAAAAAGUAUUUGAAAUUUGCACAUUUAAUUGUCCCUAAUAGAAAGCCACCUAUUCUUUGUUGGAUUUCUUCAAGUUUUUCUAAAUAAAUGUA | 1.03 |
| CCUUAUAAAGAAUGCCAAUUAAGUUUUAUUACCUGUCAUCAAUUUAUCCUAGUAUCUCAGUGUUCAUUCUUCUUGCCUUCAUAUUUUUUUCAAAGAAACAGCUGUGCUAA | 0.632 |
| CCUGCCUCACCCUCCCAAGUAGCUGGGAUUACAGGUGCCCACCUCCACGCCCAGCUAAUUUUUGUAUUUUUAAUAGAGACCGGUUUUGCCAUGUUGGCCAGGCUGGUCUC | 0.334 |
| CCUUUGCUAAACCAGAGGAUAAAAAAGGAGAGUAUGAGUACAUAAAAAUCUAUCUUUGAUACAUUUUAUUUUUAUGCCCUACUUAAUAUUUGCAUCAGUAUAAUAUAUAU | 0.315 |
| GCUUUGGCCUGGAAAAUAAGCACUGGCCUGCAUGCCUAGAACCUGAGUGAAGGCAGUCAACAUCCUAGUAUGAAUCAGACCUAGCAGAAAUGUAAAUUAUUUCAAGUACU | 1.87 |
| UUGGCCAUGAUCAACAACAUGCAGCAUGAUGGUGCGUGCACCGUGCGGUCCGUGCACCAUGCCGCCUGUGACCUGCAUCUGCUCCAAGCAGAGACUUUGGCUUUUUGUUU | 0.473 |
| UUUAAGGUGUCUUUAUGAAGUUUGCUAUUCUGGCAAUAAACUUUUAGACUUUUGAAGUGUUUGUGUUUUAAUUUAAUAUGUUUAUAAGCAUGUAUAAACAUUUAGCAUAU | 54.3 |

Series 5
Target: Sal-like protein 4, full length isoform A (SALL4, Homo sapiens, UniProt Q9UJQ4, residues 1-1053)
Chain of UniProt Q9UJQ4 (whole entry, looked up): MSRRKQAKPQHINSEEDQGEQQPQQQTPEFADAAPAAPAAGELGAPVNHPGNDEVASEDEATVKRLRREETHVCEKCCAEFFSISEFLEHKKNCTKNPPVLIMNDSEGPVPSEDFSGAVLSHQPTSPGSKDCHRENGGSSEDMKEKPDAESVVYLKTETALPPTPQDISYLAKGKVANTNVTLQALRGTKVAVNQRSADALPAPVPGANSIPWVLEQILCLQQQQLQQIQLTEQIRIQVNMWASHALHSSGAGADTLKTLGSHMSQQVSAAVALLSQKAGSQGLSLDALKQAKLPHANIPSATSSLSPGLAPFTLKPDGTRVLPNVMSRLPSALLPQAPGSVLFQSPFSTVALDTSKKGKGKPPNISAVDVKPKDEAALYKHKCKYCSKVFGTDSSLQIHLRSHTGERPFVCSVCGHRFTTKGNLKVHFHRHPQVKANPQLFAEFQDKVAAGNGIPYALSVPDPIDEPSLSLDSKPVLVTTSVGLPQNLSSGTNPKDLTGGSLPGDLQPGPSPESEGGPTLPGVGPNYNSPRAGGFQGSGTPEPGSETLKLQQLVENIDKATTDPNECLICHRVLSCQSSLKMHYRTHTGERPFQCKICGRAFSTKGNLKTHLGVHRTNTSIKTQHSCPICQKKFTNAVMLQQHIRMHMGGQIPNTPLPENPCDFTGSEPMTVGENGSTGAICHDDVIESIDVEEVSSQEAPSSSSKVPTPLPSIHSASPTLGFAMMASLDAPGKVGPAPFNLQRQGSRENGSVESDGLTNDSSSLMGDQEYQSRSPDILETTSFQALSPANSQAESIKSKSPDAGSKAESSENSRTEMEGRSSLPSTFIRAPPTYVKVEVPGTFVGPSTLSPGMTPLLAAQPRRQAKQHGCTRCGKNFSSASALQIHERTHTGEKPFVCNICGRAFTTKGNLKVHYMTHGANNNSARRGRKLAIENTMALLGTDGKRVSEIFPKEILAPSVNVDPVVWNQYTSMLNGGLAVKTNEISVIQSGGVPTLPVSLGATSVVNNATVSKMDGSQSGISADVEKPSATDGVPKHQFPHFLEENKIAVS
Method: universal PBM
Form: double-stranded DNA, one strand shown
Sample: in vitro
Tested at: 600 nM
Notes: 8-mer, flanks averaged, mean of replicates
Reading: higher = stronger binding
| Strand | E-score |
| --- | --- |
| CCCAGCCA | -0.171 |
| CTCCGCAC | -0.285 |
| CGCGAGGA | -0.264 |
| ACCCGGAA | -0.15 |
| CGATGGCC | -0.049 |
| ACTGTCGG | -0.229 |
| ACGAGACC | -0.19 |
| CTCTTATA | 0.301 |
| ACGGCTTC | -0.162 |
| ATAATGGA | 0.246 |
| AGCGTCAC | -0.26 |
| ACGCCGGC | -0.289 |
| ATGGTGCG | -0.0764 |
| CTACTCCA | 0.0273 |
| CGGTTAAG | 0.042 |
| AAAGGGGA | -0.17 |
| AATCACAG | 0.0072 |
| AACATTCA | 0.0966 |
| ACGCCAGA | -0.154 |
| AGGAGTAG | -0.0753 |
| CCGGGACC | -0.395 |
| CGTGGTTC | -0.181 |
| GTTGACGA | -0.0813 |
| AGTAAGTA | 0.246 |
| AGTAACTG | 0.137 |

Some of these lines once more (series 3):
| Strand | fitted relative affinity [z-score] |
| --- | --- |
| TTAGGACTGCTTAGCCTTTAGTGCTAG | -0.598 |
| TTAGGTTTCGGTTCCCGTTAGTGCTAG | 10 |
| GACGATTTCAGTCTCGAGAGGTGCTAG | 2.43 |
| TTAGACATCGGGACTGGATTAGTGCTA | -0.661 |
| TTTGGTCTCGGACTGGGTTAGTGCTAG | -0.0661 |
| GACGATATCGGGGATCGAGACGTGCTA | -0.0621 |
| GACGCACTGAGTATCGAGACGTGCTAG | -0.0292 |
| GACGATCTCAGTCTCGAGAAGTGCTAG | 0.639 |
| AAGGCTTTGCTTCCTGCAGAGTGCTAG | -0.647 |
| TCATTTTACTTTCTATGACTGTGCTAG | 3.92 |
| GACGGTTTCGACTTTCGGGCCGTGCTA | 3.59 |
| TCATCTCTGGGTCGGGCACTGTGCTAG | 0.352 |
